Assay results pooled from the literature.
Numbered parts are unrelated; each lists some results of a single study.

Series 1 — method: protein binding microarray; molecule type: double-stranded DNA, one strand shown; matrix: in vitro; concentration: not given; reference: not given; direction: higher = stronger binding; quantity: E-score
Target: Histone acetyltransferase KAT6A, winged helix 1, GST fusion (KAT6A, Homo sapiens, UniProt Q92794, residues 1-85)
Notes: 8-mer, flanks averaged, mean of 2 arrays, mostly near background
Construct (chain): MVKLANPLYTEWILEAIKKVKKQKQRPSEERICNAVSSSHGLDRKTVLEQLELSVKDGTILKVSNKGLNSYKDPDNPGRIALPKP
CAGCCCCC: 0.0136
CCCAGCCG: 0.0697
CTTTGGGC: 0.0142
CGGCAACA: 0.231
AAATTATC: -0.0482
GGACAGCA: -0.173
ATGACGTC: 0.113
CGAGAACC: -0.0931

Series 2 — method: universal PBM; molecule type: double-stranded DNA, one strand shown; matrix: in vitro; concentration: not given; direction: higher = stronger binding; quantity: E-score
Target: Sal-like protein 4, full length isoform B (SALL4, Homo sapiens, UniProt Q9UJQ4-2, residues 1-616)
Notes: 8-mer, flanks averaged, mean of replicates
CGAACGAC: -0.154
CAAGGAGG: -0.113
TAACCCCA: -0.133
ACGTTACG: 0.145
ATTACGTG: 0.101
ACAACAAA: 0.099
GTTCTGAA: 0.0739

Series 3 — method: RNA Bind-n-Seq; molecule type: RNA; matrix: in vitro; concentration: not given; reference: input RNA pool; direction: higher = stronger binding; quantity: bound/input enrichment
Target: RING finger protein unkempt homolog, zinc fingers 1-6, GST-SBP tag (UNK, Homo sapiens, UniProt Q9C0B0, residues 30-357)
Notes: RNA with constant flanks, human and mouse sites, ends assumed
All sequences stand within: GGGAGUUCUACAGUCCGACGAUC … CAACAGAGGAUUGAGCAUCA
Residues (chain): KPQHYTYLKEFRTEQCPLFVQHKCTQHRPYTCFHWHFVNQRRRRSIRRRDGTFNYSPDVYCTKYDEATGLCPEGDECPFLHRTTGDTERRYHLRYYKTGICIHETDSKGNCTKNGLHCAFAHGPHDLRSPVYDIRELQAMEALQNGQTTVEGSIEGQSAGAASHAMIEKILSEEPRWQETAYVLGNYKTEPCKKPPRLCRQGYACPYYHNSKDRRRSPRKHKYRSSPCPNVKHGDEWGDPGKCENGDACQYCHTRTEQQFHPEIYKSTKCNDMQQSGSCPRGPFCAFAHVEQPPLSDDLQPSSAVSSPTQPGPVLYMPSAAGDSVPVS
AAACGGGAUGUGCUUUGUGGUUACCUUUUGUGUACCAAUAUUGGCAAUAUCCCAAGGCUUGGAGAACUCGAUGGUGAAAUCACAUCUACUUUAGUUGUGCAGCAAGGAAGAACAUUAAAC: 0.179 ratio
GAAGAAGCCCAUAAACUCCCAGUAAAACAUUUUACUAAUCCAUAUUGUAACAUCUACCUGAAUAGUGUCCAAGUAGCAAAAACUCAUGCAAGGGAAGGGCAAAACCCAGUAUGGUCAGAA: 0.479 ratio
GUGGAGAUAAGCCCCAUAAAUGUAACUAUUGUGAUAUGGUUUUUGCACAUAAACCAGUUUUGAGGAAACACCUUAAACAGCUGCAUGGCAAAAACAGCUUUGAUAAUGCCAAUGAGAGAA: 0.194 ratio
UUUGAUGAGUUCAGAACAGUGCUGUAACUGUUUUUCCUACUUCUUCAAUGGAAGGAUUGUCCUUAGAUCUUCCCACCAUCACAAAUGAAUUUGAAGAUGAAAAGAAACUCAGUUGCUCAU: 0.0547 ratio
CAGAUGUCUCCCCUUUCCUUAUAUGGUGAAAACUCUAAUAGUCUCUCUUCAGCGGAGCCACUGAAGGAAGAUAAGCCUGUCACUGGUCCUAGGAACAAGACUGAAAAUGGACUGACUCCA: 0.227 ratio
GAUCUAUAUACAUUGCCUGUAUCCAGGAGGCUACACACCAGCAAACCGUGAAGGAGAAUGGGACACUGGGUCAUGGCCUGGAGUUGCUGAUAAUUUAGGUGGGAUAGAUACUUGGUCUAC: 0.237 ratio
GCAUUUGAAAGCUCAUGACAGAGCUAAAGAUCUGCCCCCCCUUCUCUCCCCUAUUUCUUUUAGGUGCCAUCUCAGUCUAAUCAUGGGUAUAAAUUCACCUUGGCCAGAGAAACUCACUAA: 0.435 ratio
UAGUGACAUGGCCUUUGGGGACAGUACAUGAUUUCUCAUAAUUUGAAUUCAUAGUAGAUAUAGUUAAGGGAACAGCAGUCAGGUUAUGAAUCUUUUCCCAUUUUUCUUUUUAAGUAAAUU: 7.79 ratio

Other studies, line by line
PhoQ, residues 284 288 289 292 302 303 AAQSYM — fold induction (PhoP, residues 12 14 15 18 19 NQFFI (Escherichia coli, UniProt P23836); Sort-seq, item: YFP reporter; E. coli; PhoQ-PhoP variant library, together with: 10 µM Mg2+; reference: high Mg2+ state, higher = stronger signaling): 1.71
